Published values from different studies.
± gives the spread as reported.
OPRM1: Mu-type opioid receptor (OPRM1, Homo sapiens, UniProt P35372)
ACHE: Acetylcholinesterase (ACHE, Homo sapiens, UniProt P22303)

Amino acid sequences for entries named in this document (tags omitted). Residues count along the entry.
UniProt P35372, whole entry: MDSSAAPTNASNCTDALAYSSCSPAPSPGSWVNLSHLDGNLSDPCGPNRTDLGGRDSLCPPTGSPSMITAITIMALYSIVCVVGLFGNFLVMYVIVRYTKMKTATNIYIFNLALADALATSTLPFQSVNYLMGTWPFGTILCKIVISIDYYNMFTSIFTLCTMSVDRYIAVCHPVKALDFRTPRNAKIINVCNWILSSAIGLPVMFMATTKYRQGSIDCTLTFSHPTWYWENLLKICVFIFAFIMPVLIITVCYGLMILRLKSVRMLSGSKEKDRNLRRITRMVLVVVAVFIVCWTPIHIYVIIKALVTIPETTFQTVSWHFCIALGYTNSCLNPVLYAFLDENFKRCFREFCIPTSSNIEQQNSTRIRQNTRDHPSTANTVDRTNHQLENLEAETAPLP
UniProt P22303, whole entry, looked up: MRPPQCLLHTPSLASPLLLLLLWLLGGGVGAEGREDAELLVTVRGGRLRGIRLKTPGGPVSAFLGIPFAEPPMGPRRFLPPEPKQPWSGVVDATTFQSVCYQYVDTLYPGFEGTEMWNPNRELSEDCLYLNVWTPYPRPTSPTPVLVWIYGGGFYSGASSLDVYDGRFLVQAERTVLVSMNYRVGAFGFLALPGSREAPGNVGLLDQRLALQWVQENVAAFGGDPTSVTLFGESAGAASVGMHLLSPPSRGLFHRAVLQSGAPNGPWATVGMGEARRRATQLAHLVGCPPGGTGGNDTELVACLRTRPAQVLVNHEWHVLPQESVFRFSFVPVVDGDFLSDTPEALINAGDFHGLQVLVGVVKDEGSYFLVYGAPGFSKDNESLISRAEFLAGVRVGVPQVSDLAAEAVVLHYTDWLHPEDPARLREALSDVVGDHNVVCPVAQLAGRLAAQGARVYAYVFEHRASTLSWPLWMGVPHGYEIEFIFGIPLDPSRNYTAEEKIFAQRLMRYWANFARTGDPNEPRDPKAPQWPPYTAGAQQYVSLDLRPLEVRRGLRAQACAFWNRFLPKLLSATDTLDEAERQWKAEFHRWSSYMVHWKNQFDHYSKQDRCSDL
UniProt Q9Y463, whole entry: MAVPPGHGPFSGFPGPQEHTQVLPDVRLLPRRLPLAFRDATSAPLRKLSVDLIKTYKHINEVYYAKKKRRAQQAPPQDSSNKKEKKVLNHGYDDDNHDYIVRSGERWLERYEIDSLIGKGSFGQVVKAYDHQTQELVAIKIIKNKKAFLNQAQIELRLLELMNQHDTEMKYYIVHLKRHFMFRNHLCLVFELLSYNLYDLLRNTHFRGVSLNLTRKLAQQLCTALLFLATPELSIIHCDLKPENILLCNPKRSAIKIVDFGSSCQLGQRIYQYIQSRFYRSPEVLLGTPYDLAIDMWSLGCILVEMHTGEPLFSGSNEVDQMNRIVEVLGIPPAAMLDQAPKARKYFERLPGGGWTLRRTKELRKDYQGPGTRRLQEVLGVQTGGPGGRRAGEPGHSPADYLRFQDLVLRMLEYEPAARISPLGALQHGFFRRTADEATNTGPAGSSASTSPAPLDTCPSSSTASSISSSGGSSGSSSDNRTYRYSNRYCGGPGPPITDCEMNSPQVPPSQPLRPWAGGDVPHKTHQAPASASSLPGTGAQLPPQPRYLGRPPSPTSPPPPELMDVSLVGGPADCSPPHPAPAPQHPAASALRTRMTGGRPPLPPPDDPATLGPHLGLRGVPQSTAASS
UniProt P11229, whole entry: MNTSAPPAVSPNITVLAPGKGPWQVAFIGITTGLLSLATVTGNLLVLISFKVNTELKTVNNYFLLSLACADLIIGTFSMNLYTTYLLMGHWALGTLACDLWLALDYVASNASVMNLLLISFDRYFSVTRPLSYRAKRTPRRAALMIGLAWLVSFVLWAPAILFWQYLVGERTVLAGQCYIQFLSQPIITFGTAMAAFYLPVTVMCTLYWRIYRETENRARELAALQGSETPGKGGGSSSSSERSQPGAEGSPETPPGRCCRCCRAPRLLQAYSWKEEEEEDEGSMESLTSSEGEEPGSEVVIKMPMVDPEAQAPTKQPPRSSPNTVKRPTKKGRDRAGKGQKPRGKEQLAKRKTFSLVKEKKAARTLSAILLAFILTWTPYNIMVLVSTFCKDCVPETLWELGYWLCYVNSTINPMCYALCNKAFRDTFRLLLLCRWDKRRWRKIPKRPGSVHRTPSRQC
UniProt Q05397, whole entry: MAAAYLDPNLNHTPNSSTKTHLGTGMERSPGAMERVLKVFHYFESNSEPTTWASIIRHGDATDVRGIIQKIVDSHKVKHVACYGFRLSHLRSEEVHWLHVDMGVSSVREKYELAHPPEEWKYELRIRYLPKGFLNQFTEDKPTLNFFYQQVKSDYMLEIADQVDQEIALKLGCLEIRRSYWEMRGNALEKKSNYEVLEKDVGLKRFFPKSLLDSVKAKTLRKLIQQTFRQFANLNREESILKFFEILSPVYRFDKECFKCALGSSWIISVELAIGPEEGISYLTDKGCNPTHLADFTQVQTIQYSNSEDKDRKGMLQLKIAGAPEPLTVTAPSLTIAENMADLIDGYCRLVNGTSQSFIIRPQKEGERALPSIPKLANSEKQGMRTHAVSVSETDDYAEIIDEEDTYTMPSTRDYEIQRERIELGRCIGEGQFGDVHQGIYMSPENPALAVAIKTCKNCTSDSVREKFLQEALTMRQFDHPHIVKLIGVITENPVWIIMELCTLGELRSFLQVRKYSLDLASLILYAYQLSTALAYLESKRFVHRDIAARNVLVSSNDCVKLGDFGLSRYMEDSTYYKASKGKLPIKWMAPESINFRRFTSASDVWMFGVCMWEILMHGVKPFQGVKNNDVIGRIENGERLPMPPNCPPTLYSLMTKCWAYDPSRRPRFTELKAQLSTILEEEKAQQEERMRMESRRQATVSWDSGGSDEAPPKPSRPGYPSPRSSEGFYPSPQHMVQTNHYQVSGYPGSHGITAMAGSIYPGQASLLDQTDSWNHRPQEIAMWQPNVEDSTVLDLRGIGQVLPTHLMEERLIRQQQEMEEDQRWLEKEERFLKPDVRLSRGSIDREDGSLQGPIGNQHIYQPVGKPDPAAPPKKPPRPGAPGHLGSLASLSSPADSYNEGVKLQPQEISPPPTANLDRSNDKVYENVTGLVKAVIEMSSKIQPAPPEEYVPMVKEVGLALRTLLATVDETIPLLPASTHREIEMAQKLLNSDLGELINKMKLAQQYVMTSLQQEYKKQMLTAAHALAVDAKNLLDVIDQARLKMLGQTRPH
UniProt Q05941, 23-502 limits assumed: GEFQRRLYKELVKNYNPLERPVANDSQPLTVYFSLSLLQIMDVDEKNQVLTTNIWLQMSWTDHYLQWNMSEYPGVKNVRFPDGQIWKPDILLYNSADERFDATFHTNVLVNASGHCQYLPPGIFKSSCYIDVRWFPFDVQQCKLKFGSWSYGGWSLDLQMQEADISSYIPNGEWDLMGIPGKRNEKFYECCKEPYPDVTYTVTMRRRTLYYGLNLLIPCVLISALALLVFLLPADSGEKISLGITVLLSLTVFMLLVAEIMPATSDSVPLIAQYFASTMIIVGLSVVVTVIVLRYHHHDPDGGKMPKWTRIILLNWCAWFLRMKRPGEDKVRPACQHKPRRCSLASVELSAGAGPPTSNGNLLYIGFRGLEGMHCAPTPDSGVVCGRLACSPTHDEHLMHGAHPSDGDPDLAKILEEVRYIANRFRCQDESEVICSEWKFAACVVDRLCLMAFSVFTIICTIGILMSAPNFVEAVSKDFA
UniProt Q93009, whole entry: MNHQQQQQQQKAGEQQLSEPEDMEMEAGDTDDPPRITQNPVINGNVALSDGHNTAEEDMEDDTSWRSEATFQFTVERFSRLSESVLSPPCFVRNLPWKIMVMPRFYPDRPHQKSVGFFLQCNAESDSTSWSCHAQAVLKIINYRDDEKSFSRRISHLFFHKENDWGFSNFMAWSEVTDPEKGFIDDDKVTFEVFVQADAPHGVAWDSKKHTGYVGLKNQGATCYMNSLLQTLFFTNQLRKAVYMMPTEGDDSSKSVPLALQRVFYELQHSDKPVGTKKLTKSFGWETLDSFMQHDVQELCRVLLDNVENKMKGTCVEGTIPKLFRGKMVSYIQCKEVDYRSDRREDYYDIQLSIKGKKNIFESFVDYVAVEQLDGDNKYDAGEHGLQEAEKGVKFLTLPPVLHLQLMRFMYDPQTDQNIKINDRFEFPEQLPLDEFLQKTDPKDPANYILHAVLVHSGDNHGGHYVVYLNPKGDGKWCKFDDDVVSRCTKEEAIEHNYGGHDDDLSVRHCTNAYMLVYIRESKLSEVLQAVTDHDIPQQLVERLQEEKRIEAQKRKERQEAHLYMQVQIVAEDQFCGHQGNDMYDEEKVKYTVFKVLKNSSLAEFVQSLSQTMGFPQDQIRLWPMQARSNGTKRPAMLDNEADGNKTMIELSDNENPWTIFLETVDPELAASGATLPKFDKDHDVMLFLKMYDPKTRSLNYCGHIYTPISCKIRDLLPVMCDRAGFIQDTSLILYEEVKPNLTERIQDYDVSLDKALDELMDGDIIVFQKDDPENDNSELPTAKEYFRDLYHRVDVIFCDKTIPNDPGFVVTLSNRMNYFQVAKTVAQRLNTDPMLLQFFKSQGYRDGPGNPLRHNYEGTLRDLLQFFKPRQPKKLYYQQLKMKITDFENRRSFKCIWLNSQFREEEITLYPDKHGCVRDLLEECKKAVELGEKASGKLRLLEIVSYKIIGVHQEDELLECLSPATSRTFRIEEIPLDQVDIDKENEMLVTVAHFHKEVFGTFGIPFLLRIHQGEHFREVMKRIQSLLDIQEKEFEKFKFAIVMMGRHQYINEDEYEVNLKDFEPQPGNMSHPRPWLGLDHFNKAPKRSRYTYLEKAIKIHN
UniProt P07550, whole entry: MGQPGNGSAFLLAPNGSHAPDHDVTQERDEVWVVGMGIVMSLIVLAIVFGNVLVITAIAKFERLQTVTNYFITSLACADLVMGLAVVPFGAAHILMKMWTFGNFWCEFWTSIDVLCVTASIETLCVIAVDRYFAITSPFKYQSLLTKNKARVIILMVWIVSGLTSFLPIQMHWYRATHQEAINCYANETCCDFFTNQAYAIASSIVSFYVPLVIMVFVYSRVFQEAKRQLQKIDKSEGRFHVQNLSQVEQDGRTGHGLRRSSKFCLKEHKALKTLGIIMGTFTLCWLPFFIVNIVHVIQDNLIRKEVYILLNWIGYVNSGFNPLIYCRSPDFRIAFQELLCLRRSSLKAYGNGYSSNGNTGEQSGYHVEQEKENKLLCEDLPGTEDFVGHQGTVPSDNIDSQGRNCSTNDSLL

Structure (SMILES) = CCN1CCN(Cc2ccc(NC(=O)c3ccc(C)c(/C=C/c4cnc5[nH]ccc5c4OC)c3)cc2C(F)(F)F)CC1; target = Dual specificity tyrosine-phosphorylation-regulated kinase 1B, with CDC37 (DYRK1B, Homo sapiens, UniProt Q9Y463); test = inhibitor, cell-based kinome screen; setting = 5 µM; how to read = relative to: vehicle; measurement = log2 fold change; result = 0.638 log2
Structure (SMILES) = Cc1ncc(-c2cc(Cl)ccc2F)cc1-n1c(=O)n(CC(N)=O)c2ccccc21; target = OPRM1; test = binding, radioligand binding; setting = 10 µM; measurement = inhibition; result = 47.4%
Structure (SMILES) = CC(C)[C@H]1CC[C@@H](N2CCC(n3c(CO)cc4ccccc43)CC2)CC1; target = CHRM1 (Homo sapiens, UniProt P11229); test = radioligand binding; setting = 10 µM; measurement = inhibition; result = 85%
Structure (SMILES) = CCN(CC)Cc1cc(NC(C)=O)ccc1O; target = ACHE; test = enzyme activity, inhibitor; setting = 1000 µM; measurement = inhibition; result = 0%
Structure (SMILES) = CC#C/C(=N\OC[C@H]1COCCN1)c1ccc2ncnc(Nc3ccc(OCc4cccc(F)c4)c(Cl)c3)c2c1; target = PTK2 (Homo sapiens, UniProt Q05397); test = kinase activity; setting = 10 µM; measurement = inhibition; result = 26.7%
Structure (SMILES) = O=C(NCC1CCN(Cc2ccccc2)CC1)c1cn(Cc2cccc(Cl)c2)nn1; target = Chrna7 (Rattus norvegicus, UniProt Q05941); test = binding; test system = rat brain membranes; setting = 10 µM, added: radiolabelled α-bungarotoxin; measurement = inhibition; result = 83 ± 1.7%
Structure (SMILES) = CN(C)Cc1cc(O)ccc1N; target = ACHE; test = enzyme activity, inhibitor; setting = 1000 µM; measurement = inhibition; result = 18%
Structure (SMILES) = CCn1ccc(-c2cc(-c3cnn(C)c3)cc([C@@H](C)NC(=O)c3cc(OCCN(C)C)ccc3C)c2)n1; target = USP7 (Homo sapiens, UniProt Q93009); test = enzyme activity; setting = up to 40 µM, added: Ub-AMC substrate; measurement = inhibition; result = no inhibition
Structure (SMILES) = CCCN1CCN(c2ccc3c(c2)C2CC3CCN2C(=O)OCc2ccccc2)CC1 (stereo not drawn); target = ADRB2 (Homo sapiens, UniProt P07550); test = binding, radioligand binding; measurement = Ki; result = > 10 µM
Structure (SMILES) = CC(Cc1ccccc1)NCCn1cnc2c1c(=O)n(C)c(=O)n2C (stereo not drawn); target = OPRM1; test = radioligand binding; setting = 10 µM; measurement = inhibition; result = 7%
Structure (SMILES) = CCN(CC)Cc1cc(N(C)C)ccc1O; target = ACHE; test = enzyme activity, inhibitor; setting = 1000 µM; measurement = inhibition; result = 0%
Structure (SMILES) = CSCC[C@@H]1NC(=O)[C@H](CC(C)C)NC(=O)[C@H](CCCNC(=N)N)NC(=O)[C@H](CO)NC(=O)[C@@H]2CSSC[C@@H]3NC(=O)[C@H](CO)NC(=O)CNC(=O)[C@H]([C@@H](C)O)NC(=O)[C@H](CSSC[C@H](N)C(=O)N[C@@H](CCCCN)C(=O)NCC(=O)N[C@@H](CCCCN)C(=O)NCC(=O)N[C@@H](C)C(=O)N[C@@H](CCCCN)C(=O)N2)NC(=O)[C@H](CSSC[C@@H](C(N)=O)NC(=O)[C@H](CCCCN)NC(=O)CNC(=O)[C@H](CO)NC(=O)[C@H](CCCNC(=N)N)NC3=O)NC(=O)[C@H](CC(=O)O)NC(=O)[C@H](Cc2ccc(O)cc2)NC1=O; target = Voltage-dependent P/Q-type calcium channel subunit alpha-1A (Homo sapiens, UniProt O00555); test = antagonist; test system = HEK293; setting = 30 µM; measurement = inhibition; result = 60%
